Results gathered from unrelated publications.
Numbered parts are unrelated; each lists some results of a single study.

Study 1 — technique: universal PBM; form: double-stranded DNA, one strand shown; medium: in vitro; tested at: 600 nM; direction: higher = stronger binding
Target: Sal-like protein 4, full length isoform A (SALL4, Homo sapiens, UniProt Q9UJQ4, residues 1-1053)
UniProt Q9UJQ4, sequence (whole entry, looked up): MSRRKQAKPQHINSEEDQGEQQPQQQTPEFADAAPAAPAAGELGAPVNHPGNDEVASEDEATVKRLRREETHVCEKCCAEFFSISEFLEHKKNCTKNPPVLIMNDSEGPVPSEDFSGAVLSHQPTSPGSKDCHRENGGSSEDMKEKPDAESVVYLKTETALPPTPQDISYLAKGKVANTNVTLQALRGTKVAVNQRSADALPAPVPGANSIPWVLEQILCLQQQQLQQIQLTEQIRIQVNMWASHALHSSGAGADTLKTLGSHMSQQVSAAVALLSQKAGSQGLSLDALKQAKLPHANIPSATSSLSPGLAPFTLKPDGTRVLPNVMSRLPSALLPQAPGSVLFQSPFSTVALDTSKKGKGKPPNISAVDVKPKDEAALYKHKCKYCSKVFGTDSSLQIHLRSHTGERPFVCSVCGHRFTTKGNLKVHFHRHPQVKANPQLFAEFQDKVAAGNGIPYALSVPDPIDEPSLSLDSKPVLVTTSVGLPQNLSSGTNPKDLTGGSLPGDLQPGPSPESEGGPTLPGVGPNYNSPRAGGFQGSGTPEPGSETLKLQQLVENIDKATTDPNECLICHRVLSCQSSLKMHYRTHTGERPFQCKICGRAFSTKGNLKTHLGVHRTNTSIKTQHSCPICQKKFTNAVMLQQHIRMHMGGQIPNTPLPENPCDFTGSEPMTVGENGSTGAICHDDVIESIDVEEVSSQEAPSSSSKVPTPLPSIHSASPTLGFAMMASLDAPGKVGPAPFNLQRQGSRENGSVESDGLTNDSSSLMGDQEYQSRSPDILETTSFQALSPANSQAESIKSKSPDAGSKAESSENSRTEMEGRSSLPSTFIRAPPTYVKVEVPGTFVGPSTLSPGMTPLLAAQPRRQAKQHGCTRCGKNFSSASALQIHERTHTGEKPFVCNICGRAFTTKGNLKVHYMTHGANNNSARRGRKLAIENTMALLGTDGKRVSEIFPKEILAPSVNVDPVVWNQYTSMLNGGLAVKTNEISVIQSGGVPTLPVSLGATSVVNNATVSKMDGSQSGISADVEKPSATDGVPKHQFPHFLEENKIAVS
Notes: 8-mer, flanks averaged, mean of replicates
| Strand | E-score |
| --- | --- |
| ACAGAGCC | -0.192 |
| CTAGTTAA | 0.171 |
| CATGGGCA | -0.242 |
| GCTTAGTA | 0.11 |
| GACGCGTA | 0.0513 |
| GAATTCTA | 0.188 |
| CACTAAGA | -0.147 |
| GCGCAACA | 0.000115 |
| AAGTCATG | 0.0852 |
| AACGCCCT | -0.114 |
| CAGGCATA | -0.00999 |
| AGATATTC | 0.194 |
| GCGTGCTA | -0.163 |
| CCAACAGC | -0.236 |
| ACCGGAAG | -0.0119 |
| ATGAAGCG | -0.13 |
| CGTGAAAC | -0.0355 |
| CTGGTTGA | -0.175 |
| CGAGTCCC | -0.206 |
| AAGATTCT | 0.0847 |
| AGTCCCAT | 0.0237 |
| CGAAATCA | 0.15 |
| GCCATCCC | -0.279 |
| CCGGCTCC | -0.406 |

Study 2 — technique: protein-binding microarray; form: double-stranded DNA, one strand shown; medium: in vitro; tested at: 250 nM; notes: 60-bp whole probe; with: salmon DNA 0.4 mg/ml; relative to: random background probes; direction: higher = stronger binding; shared flanks, not repeated: GCCTAGCAC … GTCTTGATTCGCTTGACGCTGCTG
Target: Interferon regulatory factor 5, full length, phosphomimetic (IRF5, Homo sapiens, UniProt Q13568-2, residues 1-514, K96S/S451D/S453D/S456D/S462D)
| Strand | log fluorescence [z-score] |
| --- | --- |
| GAGACTCTAATATTGAGACTGTGCTAG | -0.156 |
| GCCGGTTTCGGTATCGGGACGTGCTAG | 10.4 |
| TTAGGTCGCCTTATCCTTTAGTGCTAG | -0.226 |
| TGAGATCTCAGTATCGATTAGTGCTAG | 6.96 |
| TTAGATATCAGTTTCTATTAGTGCTAG | 5.22 |
| TTAGACATCAGTTTCGATTAGTGCTAG | 9.52 |
| GACGGTATCGGGTATCGAGACGTGCTA | 3.4 |
| TCAGCTTTATGTGTAGGACTGTGCTAG | -0.0412 |
| TTAGATTCCAGTTTCGTTTAGTGCTAG | 8.36 |
| GACGATCTCAGTATCGAAACGTGCTAG | 4.61 |
| GCCGGTTTCGGACTGGGGACGTGCTAG | 4.87 |
| GACGATATAAGTTTCGAGACGTGCTAG | 5.23 |
| GGCGGACTGGGGACTGGGGACGTGCTA | -0.636 |
| TTAGAACTGGGGACTGGCTTAGTGCTA | -0.397 |
| TTAAGACTGCTTCTCCTTTAGTGCTAG | 0.14 |
| TTAAGTATCGGTCTCGGTTAGTGCTAG | 8.64 |
| TTACGTATCGACTTTCGGTTAGTGCTA | 10.4 |
| AGCCTTATCCCTAATCTCAGCGTGCTA | -0.198 |
| CTAGGTTTCGGTCTCGGTTAGTGCTAG | 9.97 |
| TTAGATACCGGGTTTCGATTAGTGCTA | 6.46 |
| GATGGTATCCTACTGCTGACGTGCTAG | -0.242 |
| TTAGGTATCGGGATTCGGTTAGTGCTA | 2.72 |
| GACGGTATCGACTTTCGGGATGTGCTA | 7.37 |
| GGCGAACTGGGGACTGGAGACGTGCTA | -0.866 |
| GACGAGTTCGGGACTGGAGACGTGCTA | -0.48 |

Study 3 — technique: protein binding microarray; form: double-stranded DNA, one strand shown; medium: in vitro; tested at: not given; relative to: not given; direction: higher = stronger binding
Target: Histone acetyltransferase KAT6A, winged helix 1, GST fusion (KAT6A, Homo sapiens, UniProt Q92794, residues 1-85)
Notes: 8-mer, flanks averaged, mean of 2 arrays, mostly near background
Construct (chain): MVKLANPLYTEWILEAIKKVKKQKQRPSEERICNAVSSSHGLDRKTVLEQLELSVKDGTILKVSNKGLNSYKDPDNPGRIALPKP
| Strand | E-score |
| --- | --- |
| ATGATTTC | -0.229 |
| ACGAGCGA | -0.172 |
| AGCAGTTA | -0.095 |
| ATATTCGG | -0.106 |
| CTGGCAGA | -0.24 |
| AGTGGTTC | -0.112 |
| ATGGTATC | -0.08 |
| CTGATCTA | -0.12 |
| ATGGTATG | -0.0423 |
| AAACTGTG | -0.274 |
| CTTGTGAA | -0.256 |
| AGGACCCT | -0.145 |
| GGGTGACA | 0.0617 |
| ATGAAGGA | -0.181 |
| ATATTTAG | 0.0251 |
| ACGACAAC | -0.0815 |

Study 4 — technique: RNA Bind-n-Seq; form: RNA; medium: in vitro; tested at: 365 nM; relative to: no-protein control; direction: higher = stronger binding
Target: RNA binding protein fox-1 homolog 2, RRM domain, GST-SBP tag (RBFOX2, Homo sapiens, UniProt O43251-10, residues 100-194)
Notes: natural RNA segment, single round, ends assumed
Construct (chain): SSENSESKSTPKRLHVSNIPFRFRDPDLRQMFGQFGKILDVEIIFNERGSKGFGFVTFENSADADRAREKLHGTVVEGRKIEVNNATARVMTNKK
| Strand | RBNS enrichment (R) |
| --- | --- |
| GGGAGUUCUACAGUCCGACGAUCCAUGCGUAAACAUUGCUGAAUAUUGUUUCACACAAAAAUUGAAACACUGUUUCUUAAUUUUAUUGUUGUAUUCAUAUAUGUAGGAUUUGAAAUAUUGUGAUGCCCACCACUGGAAUUCUCGGGUGCCAA | 0.343 |
| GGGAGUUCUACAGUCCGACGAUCUGUCAGUGCAUACUCCUUCCUGACGAUCCCCUGGGGCAAGCUGCCGACAGUGGCGUAAACAGGAGACAUCACCCUAUACUGCGAAACUACAGAAAGGAAGACAGCUUGGCUGGAAUUCUCGGGUGCCAA | 0.534 |
| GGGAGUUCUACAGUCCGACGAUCCUGGACACUUCAGUCCAGCUCUCUCCUGACUGGGGCUUGCGACUCACAGGAUUGCAUCGUCCCAGCUGCUAACUUGGGGCCGGGGCCCCUCCCUUCCACAUAUACCUUGGUGGAAUUCUCGGGUGCCAA | 0.269 |
| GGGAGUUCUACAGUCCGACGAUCCUCCUCUGACUCUAGUGGGAACAGGCCCCAGCUCAGCCUCCGGCAGGGAGGUCACCCCUCCACUUCAGCUUGCCCUGACCUCCGCUCGCAAACCCCGAGCUUCCAAGCCUUGGAAUUCUCGGGUGCCAA | 0.586 |
| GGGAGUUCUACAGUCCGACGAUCGAAAUAAGGUGACAAGUAAAGACUUUUAUAAUACCUACCUUCAAAAUUAGAAUCAGCAGCACUGUACAAAUAAAGUGCCUGUGCUUCACCUCACACCAAGAAUCUUGCCUUGGAAUUCUCGGGUGCCAA | 0.571 |
| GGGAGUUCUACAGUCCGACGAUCGAGAGACUGUAUAUAUUUUUUCUAAAUACUUUGUGAAAUCAUUUUUGGUAGCAAUAUCUUUGAAUAUGAUGAAUAAAAGUGACUGUGAGUGCAAAUAGAAUUAGCAGUAAUGGAAUUCUCGGGUGCCAA | 0.49 |
| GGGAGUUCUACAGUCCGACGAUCCCCCAGGAGCACAGGUCUCUCCGGGCCGCUGUCCUGCGUAACUGUUCUCCAGAGCGCCAGCCAGCCACGGGCCUGAUUCCAGAGGAGCCGAACUGACAGGACACAGCAGGUGGAAUUCUCGGGUGCCAA | 0.336 |
| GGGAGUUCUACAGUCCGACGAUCCCUGACCCUCAGUUCCCAGAGGACCUAGAGGCUCGAGGGUGGGGCCUGCCUUUCUUGAUGUCCAAUGAUGGGGCCUGGAAUGUAUGAGCUAGCAAGGCUUCUUCAGCUUAUGGAAUUCUCGGGUGCCAA | 0.747 |
| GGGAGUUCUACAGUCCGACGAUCGACAUUUUGGACAUGAGUUCAAGGGGGCAGGUUAAUUCCUGGCAUUGCCAGUUUUCUUCAUUCAGAAUCUGUUUGUUGAUCAAGUGACUGUCCCCGUAAAAAGUAGAAGAUGGAAUUCUCGGGUGCCAA | 0.419 |
| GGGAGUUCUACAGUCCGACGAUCUCCCGUCAUCUGUUGGCUUCAGGAGGACUGCCAUAAAGUCCCAUUGACAUUUACUCUUAUGUCUUUCUCUGGUCAUUCUGUUUUGUGGUACAAUCACCGUGUAAGUUAUGUGGAAUUCUCGGGUGCCAA | 0.626 |
| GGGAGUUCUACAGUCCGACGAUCAUUCUCCCUUCCUCCUCCUUCUUUUCUAUUGGGGCCCUCAACAGAUUGGAUGGAGUGGAUGUCUUCACUCAGUCUGCCAAUUCCCAUCCUAACCUCUUCUGGAAACACCCUGGAAUUCUCGGGUGCCAA | 0.711 |
| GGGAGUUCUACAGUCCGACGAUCAGAAAUACAAUGGAUGUGGAAACUAAUUCUAAAAAAUAGCCCUAUUAAUAGGGCAGAGACUCUGGUCCAUUUCCCAGCUGUACUUCUCUCUAAGAGGUGUAUGAAAAACCUGGAAUUCUCGGGUGCCAA | 0.34 |

A few entries again (study 3):
| Strand | E-score |
| --- | --- |
| ATATTCGG | -0.106 |
| CTGGCAGA | -0.24 |
| AGTGGTTC | -0.112 |
| ATGGTATC | -0.08 |
| CTGATCTA | -0.12 |
| ATGGTATG | -0.0423 |
| AAACTGTG | -0.274 |
| CTTGTGAA | -0.256 |
| AGGACCCT | -0.145 |
| GGGTGACA | 0.0617 |
| ATGAAGGA | -0.181 |
